Measured values of several laboratories.
“And” joins repeats or separate records; there may be more than shown. Numbers after ± are the reported error.

SMILES | target or system | test | test system | setting | how to read | quantity | result
COC1OC(C)C(OC2OC(C)C(O)C(OC3OC(C)C(OC4OC(C)C(O)C(OC5OC(C)C(OC6OC(C)C(O)C(OC7OC(C)C(OC8OC(C)C(O)C(OC9OC(C)C(OC%10OC(C)C(O)C(OC%11OC(C)C(O)C(OS(=O)(=O)O)C%11OS(=O)(=O)O)C%10OS(=O)(=O)O)C(OS(=O)(=O)O)C9OS(=O)(=O)O)C8OS(=O)(=O)O)C(OS(=O)(=O)O)C7OS(=O)(=O)O)C6OS(=O)(=O)O)C(OS(=O)(=O)O)C5OS(=O)(=O)O)C4OS(=O)(=O)O)C(OS(=O)(=O)O)C3OS(=O)(=O)O)C2OS(=O)(=O)O)C(OS(=O)(=O)O)C1OS(=O)(=O)O (stereo not shown) | – | – | human plasma | 128 µg/mL | baseline: control | prothrombin time prolongation | 1 fold
COc1ccc(NC(=O)c2ccc3[nH]c(-c4ccc(N(C)C)cc4)nc3c2)cn1 | – | – | CT26, BALB/c nude mice, subcutaneous graft | dose not given, day 11 | – | tumour volume | 351 mm3 and 1090 mm3 and 1800 mm3 and 1270 mm3
O=C(N/N=C/c1cc[n+](Cc2ccccc2)c2ccccc12)c1ccc2ccc(C(=O)N/N=C/c3cc[n+](Cc4ccccc4)c4ccccc34)nc2n1 | hp2 hairpin duplex DNA | FRET melting | – | 1 µM, with: ds26 10 µM | – | ΔTm | 0.8 ± 0.2 °C
COc1cc2nc(N3CCN(C(=O)C4CC5(CC5)CO4)CC3)nc(N)c2cc1OC (stereo not shown) | – | – | male SHR rat | oral, 3 mg/kg, 120 min | baseline: baseline | diastolic blood pressure decrease | 28 mmHg
N[C@@H](CNC(=O)N[C@@H](CS)C(=O)NCC(=O)O)C(=O)O | – | – | mouse C57BL/6, Aβ i.c.v. model, brain | intranasal, dose not given | – | glyoxalase 1 activity | 81.8 ± 7.1 ΔOD/min/mg protein
Oc1cc2c(cc1O)C(c1ccc3[nH]ccc3c1)NCC2 (stereo not shown) | – | ABTS scavenging | – | 10 min, dark | – | IC50 | 12.8 µM
COC1OC(C)C(O)C(OC2OC(C)C(O)C(OC3OC(C)C(O)C(OC4OC(C)C(O)C(OS(=O)(=O)O)C4OS(=O)(=O)O)C3OS(=O)(=O)O)C2OS(=O)(=O)O)C1OS(=O)(=O)O (stereo not shown) | – | – | human plasma | 128 µg/mL | – | prothrombin time | 14.8 ± 0.1 s
CCCCCCC(CSS(=O)(=O)O)NCC(C)C (stereo not shown) | – | – | Swiss Webster mice, Schistosoma mansoni infected | 100 mg/kg | baseline: vehicle control | liver weight decrease | 3.54%
COC1CN([C@H]2CC[C@H]([C@@]3(C)Oc4c(Cl)cc(C(=O)NCc5c(SC)cc(C)[nH]c5=O)c(C)c4O3)CC2)C1 | – | RNA-seq, item: N4BP3 mouse homolog | mouse, HT-1376 xenograft, whole blood | dose not given | baseline: vehicle | log2 fold change | 0.411
CC(C)C[C@H](NC(=O)[C@H](CC(=O)O)NC(=O)CNC(=O)[C@@H](N)CCCNC(=N)N)C(=O)N[C@@H](C)C(=O)N[C@H](C(=O)N[C@@H](CC(C)C)C(=O)N[C@@H](CCCNC(=N)N)C(=O)N[C@@H](CCC(N)=O)C(=O)N[C@@H](CC(C)C)C(=O)N[C@@H](C)C(=O)N[C@@H](CCC(N)=O)C(=O)N[C@@H](CCC(=O)O)C(=O)N[C@@H](CC(=O)O)C(=O)NCC(=O)N[C@H](C(=O)N[C@H](C(=O)NCC(=O)N[C@H](C(=O)N[C@@H](CCCNC(=N)N)C(=O)NCCOCCOCCOCCOCCOCCOCCOCCOCCOCCOCCOCCOCCC(=O)N[C@@H](CS)C(N)=O)C(C)C)C(C)C)C(C)C)[C@@H](C)O | – | ex vivo NIR imaging | NOD/SCID mice, xenograft, H2009 xenograft | intravenous, 30 µg, 24 h | baseline: lung | fluorescence signal ratio | 193 and 24 and 105
COC1OC(C)C(OC2OC(C)C(O)C(OC3OC(C)C(OC4OC(C)C(O)C(OC5OC(C)C(OC6OC(C)C(O)C(OC7OC(C)C(O)C(OS(=O)(=O)O)C7OS(=O)(=O)O)C6OS(=O)(=O)O)C(OS(=O)(=O)O)C5OS(=O)(=O)O)C4OS(=O)(=O)O)C(OS(=O)(=O)O)C3OS(=O)(=O)O)C2OS(=O)(=O)O)C(OS(=O)(=O)O)C1OS(=O)(=O)O (stereo not shown) | – | – | human plasma | 128 µg/mL | baseline: control | prothrombin time prolongation | 0.97 fold
COc1cc(O)ccc1CCC(c1ccc(O)cc1)c1cc2c(c(C)c1O)OC(c1ccc(O)cc1)CC2 (mixture of isomers) | – | item: 12-HETE | human whole blood | 30 µM, with: Escherichia coli | – | amount | 28700 ± 2840 pg/mL blood
C[n+]1cccc2cc(/C=N/NC(=O)c3cccc(C(=O)N/N=C/c4ccc5c(ccc[n+]5C)c4)c3)ccc21 | hp2 hairpin duplex DNA | FRET melting | – | 1 µM, with: ds26 10 µM | – | ΔTm | 0.5 ± 0.1 °C
CC(C)(C)NCC(SS(=O)(=O)O)c1ccccc1 (stereo not shown) | – | – | Schistosoma mansoni-infected mice | 400 mg/kg single, day 42, perfusion day 56 | – | liver weight | 4.15 g
CC(C)C[C@H](NC(=O)[C@H](Cc1ccccc1)NC(=O)[C@H](C)NC(=O)[C@@H](CS)NC(=O)CNC(=O)[C@H](N)CO)C(=O)N[C@@H](CO)C(=O)N[C@H](C(=O)N[C@@H](CCCCN)C(=O)N[C@@H](CCCCN)C(=O)N[C@@H](CCC(N)=O)C(=O)N[C@@H](Cc1ccccc1)C(=O)N[C@@H](CCC(=O)O)C(=O)N[C@@H](CCC(=O)O)C(=O)N[C@@H](CC(C)C)C(=O)N[C@H](C(=O)N[C@@H](CC(C)C)C(=O)NCC(=O)N[C@@H](CCC(=O)O)C(=O)N[C@@H](Cc1ccccc1)C(=O)N[C@@H](CC(C)C)C(=O)N[C@H](CCCCN)C(=O)N[C@H](CC(C)C)C(=O)N[C@H](CC(=O)O)C(=O)N[C@@H](CCCNC(=N)N)C(=O)N[C@H](CCCNC(=N)N)C(=O)N[C@@H](CCCNC(=N)N)C(=O)N[C@@H](CCCCN)C(=O)O)[C@@H](C)O)C(C)C | – | immunofluorescence, immunoblot | mouse A549 xenograft, tumour | intravenous, dose not given | – | p53 level | decreased
COC1OC(C)C(OC2OC(C)C(OS(=O)(=O)O)C(OC3OC(C)C(OC4OC(C)C(OS(=O)(=O)O)C(OC5OC(C)C(OS(=O)(=O)O)C(OS(=O)(=O)O)C5O)C4O)C(OS(=O)(=O)O)C3O)C2O)C(OS(=O)(=O)O)C1O (stereo not shown) | – | – | human plasma | 128 µg/mL | baseline: control | prothrombin time prolongation | 1 fold
Nc1nc2cc(CC[C@H]3C[C@@H](n4ccc5c(N)ncnc54)[C@H](O)[C@@H]3O)ccc2cc1Br | – | – | NCI-H520 xenograft, mouse | 1.0 mg/kg/day, day 27 | – | tumour volume | 708 ± 114 mm3
COC1OC(C)C(OC2OC(C)C(OS(=O)(=O)O)C(OC3OC(C)C(OC4OC(C)C(OS(=O)(=O)O)C(OS(=O)(=O)O)C4O)C(OS(=O)(=O)O)C3O)C2O)C(OS(=O)(=O)O)C1O (stereo not shown) | – | – | human plasma | 128 µg/mL | – | prothrombin time | 15.1 ± 0.2 s
CCCCCCCCCCCCCCCC(=O)OCC(CSC[C@H](N)C(=O)N[C@@H](CO)C(=O)N[C@@H](CCCCN)C(=O)N[C@@H](CCCCN)C(=O)N[C@@H](CCCCN)C(=O)N[C@@H](CCCCN)C(=O)NCCCCCC(=O)N[C@@H](CCCCN)C(=O)N[C@@H](CC(C)C)C(=O)N[C@H](C(=O)N[C@@H](Cc1ccccc1)C(=O)N[C@@H](Cc1ccccc1)C(=O)N[C@@H](Cc1ccc2ccccc2c1)C(=O)O)C(C)C)OC(=O)CCCCCCCCCCCCCCC (stereo partly shown) | – | thioflavin S staining | APP/PS1 transgenic mouse, hippocampus | intrahippocampal, unit not given | baseline: injected over adjacent side | amyloid plaque load | 0.0783 and 0.182 and 0.476 and 0.000183
COC1OC(C)C(OC2OC(C)C(OS(=O)(=O)O)C(OC3OC(C)C(OC4OC(C)C(OS(=O)(=O)O)C(OC5OC(C)C(OC6OC(C)C(OS(=O)(=O)O)C(OC7OC(C)C(OC8OC(C)C(OS(=O)(=O)O)C(OC9OC(C)C(OS(=O)(=O)O)C(OS(=O)(=O)O)C9O)C8O)C(OS(=O)(=O)O)C7O)C6O)C(OS(=O)(=O)O)C5O)C4O)C(OS(=O)(=O)O)C3O)C2O)C(OS(=O)(=O)O)C1O (stereo not shown) | – | – | human plasma | 128 µg/mL | baseline: control | prothrombin time prolongation | 1 fold
CN1CCC[C@]1(C)/C=C/S(=O)(=O)NC(=O)Nc1c2c(cc3c1CCC3)CCC2 | – | – | human, whole blood ex vivo | 50 mg twice daily, day 14, 12 h, multiple ascending dose, with: LPS and ATP | – | IL-1β inhibition | 99.1%
COC1OC(C)C(O)C(OC2OC(C)C(O)C(OC3OC(C)C(O)C(OC4OC(C)C(O)C(OC5OC(C)C(O)C(OC6OC(C)C(O)C(OC7OC(C)C(O)C(OC8OC(C)C(O)C(OC9OC(C)C(O)C(OC%10OC(C)C(O)C(OS(=O)(=O)O)C%10OS(=O)(=O)O)C9OS(=O)(=O)O)C8OS(=O)(=O)O)C7OS(=O)(=O)O)C6OS(=O)(=O)O)C5OS(=O)(=O)O)C4OS(=O)(=O)O)C3OS(=O)(=O)O)C2OS(=O)(=O)O)C1OS(=O)(=O)O (stereo not shown) | – | – | human plasma | 128 µg/mL | baseline: control | prothrombin time prolongation | 0.98 fold
NC[C@@H](C(=O)Nc1ccc(-c2cn[nH]c2)cc1)c1ccccc1 | – | tonometry | NZW rabbit, magnetic bead-induced ocular hypertension | ocular, 0.1%, 26 h | – | IOP | 31.9 mmHg
O=C(NS(=O)(=O)c1cccs1)c1cc2ccccc2n1Cc1ccc(Br)c2ccccc12 | – | – | mouse, acute hyperuricaemia model, serum | oral, 2 mg/kg | baseline: vehicle model | serum uric acid decrease | 93.4%
OCc1ccc(C2NCCc3cc(O)c(O)cc32)o1 (stereo not shown) | – | ABTS scavenging | – | 10 min, dark | – | IC50 | 9.22 µM
COC1OC(C)C(O)C(OC2OC(C)C(O)C(OC3OC(C)C(O)C(OC4OC(C)C(O)C(OC5OC(C)C(O)C(OC6OC(C)C(O)C(OC7OC(C)C(O)C(OC8OC(C)C(O)C(OC9OC(C)C(O)C(OC%10OC(C)C(O)C(OC%11OC(C)C(O)C(OC%12OC(C)C(O)C(OS(=O)(=O)O)C%12OS(=O)(=O)O)C%11OS(=O)(=O)O)C%10OS(=O)(=O)O)C9OS(=O)(=O)O)C8OS(=O)(=O)O)C7OS(=O)(=O)O)C6OS(=O)(=O)O)C5OS(=O)(=O)O)C4OS(=O)(=O)O)C3OS(=O)(=O)O)C2OS(=O)(=O)O)C1OS(=O)(=O)O (stereo not shown) | – | – | human plasma | 128 µg/mL | – | prothrombin time | 14.5 ± 0.3 s
CCC(=O)N[C@@H](C)C(=O)OCC(=O)N[C@@H](C)C(=O)O | – | – | water | pH 3, 37 °C | – | chain scission rate constant | 0.0005 h⁻¹
CC(=O)N1c2ccc(-c3ccc(CNC(=O)c4cn5cc(-c6cnc(N)nc6)nc(N6CCOCC6)c5n4)cc3)cc2CC[C@@H]1C | – | – | mice transplanted Eµ-Myc lymphoma | 45 mg/kg, 15 d dosing | – | sustained complete lymphoma clearance | 90%

Repeated from above:
SMILES | target or system | test | test system | setting | how to read | quantity | result
COc1cc2nc(N3CCN(C(=O)C4CC5(CC5)CO4)CC3)nc(N)c2cc1OC (stereo not shown) | – | – | male SHR rat | oral, 3 mg/kg, 120 min | baseline: baseline | diastolic blood pressure decrease | 28 mmHg
N[C@@H](CNC(=O)N[C@@H](CS)C(=O)NCC(=O)O)C(=O)O | – | – | mouse C57BL/6, Aβ i.c.v. model, brain | intranasal, dose not given | – | glyoxalase 1 activity | 81.8 ± 7.1 ΔOD/min/mg protein
Oc1cc2c(cc1O)C(c1ccc3[nH]ccc3c1)NCC2 (stereo not shown) | – | ABTS scavenging | – | 10 min, dark | – | IC50 | 12.8 µM
COC1OC(C)C(O)C(OC2OC(C)C(O)C(OC3OC(C)C(O)C(OC4OC(C)C(O)C(OS(=O)(=O)O)C4OS(=O)(=O)O)C3OS(=O)(=O)O)C2OS(=O)(=O)O)C1OS(=O)(=O)O (stereo not shown) | – | – | human plasma | 128 µg/mL | – | prothrombin time | 14.8 ± 0.1 s
